# Results pooled from the literature.
# Parts stem from different laboratories: compare values within a part only.

# Block 1 — organism: SARS-CoV-2 Wuhan spike VSV pseudovirus; read-out: pseudovirus entry; concentration: 10 µM
Compound,inhibition [%]
CN(c1ccc([N+](=O)[O-])cc1S(=O)(=O)N1CCOCC1)C1CCCCC1,71
COc1cc(-n2ccnc2)cc(OC)c1OC,100
COc1ccc(C(CC(=O)NCc2ncc[nH]2)c2ccccc2)cc1 (stereo not drawn),73
CN(C)S(=O)(=O)c1cccc(Cn2ncc(Cl)c(Cl)c2=O)c1,100
Cc1cc(SC(C)C(=O)NC2CCS(=O)(=O)C2)nc2ccccc12 (stereo not drawn),99
CC1Oc2ccc(Nc3nccc(C(F)(F)F)n3)cc2NC1=O (stereo not drawn),82

# Further values, each from its own experiment
# rep nsp12 RdRp: Replicase polyprotein 1ab, nsp12 RdRp (rep, Severe acute respiratory syndrome coronavirus 2, UniProt P0DTD1)
# rep papain-like protease: Replicase polyprotein 1ab, papain-like protease (rep, Severe acute respiratory syndrome coronavirus 2, UniProt P0DTD1)
# rep nsp14: Replicase polyprotein 1ab, nsp14 (rep, Severe acute respiratory syndrome coronavirus 2, UniProt P0DTD1)
Structure (SMILES),target,assay,conditions,scale,measurement,result
Cc1ccc(NC(=O)Nc2cc(C(F)(F)F)ccc2F)cc1Nc1ccc2c(c1)NC(=O)/C2=C\c1ccc[nH]1,rep nsp12 RdRp,"binding, biolayer interferometry",concentration not given,,BLI response,0 nm
C[C@@]1(c2cc(-c3cncnc3)c(F)cc2F)CCSC(N)=N1,rep papain-like protease,,"concentration not given, C111S mutant",baseline: positive control,activity,19.7%
O=C(NC1CCN(c2ncnc3[nH]cnc23)CC1)c1cccc(S(=O)(=O)N2CCC2)c1,rep nsp14,"NSP14 enzyme activity, inhibitor",50 µM,,inhibition,68.1%
CC1(C)[C@@H](O[C@H]2O[C@H](C(=O)O)[C@@H](O)[C@H](O)[C@H]2O[C@@H]2O[C@H](C(=O)O)[C@@H](O)[C@H](O)[C@H]2O)CC[C@]2(C)[C@H]3C(=O)C=C4[C@@H]5C[C@@](C)(C(=O)O)CC[C@]5(C)CC[C@@]4(C)[C@]3(C)CC[C@@H]12.N,rep nsp12 RdRp,"binding, biolayer interferometry",concentration not given,,BLI response,0.01 nm
CC(C)C[C@H](NC(=O)CNC(=O)c1cc(Cl)ccc1Cl)B(O)O,rep papain-like protease,,"concentration not given, C111S mutant",baseline: positive control,activity,25.7%
C[S+](CC[C@H](N)C(=O)[O-])C[C@H]1O[C@@H](n2cnc3c(N)ncnc32)[C@H](O)[C@@H]1O (stereo partly drawn),rep nsp14,thermal shift,250 µM,,ΔTm,1.1 °C

# Repeated from above (further values, each from its own experiment):
Structure (SMILES),target,assay,conditions,scale,measurement,result
CC(C)C[C@H](NC(=O)CNC(=O)c1cc(Cl)ccc1Cl)B(O)O,rep papain-like protease,,"concentration not given, C111S mutant",baseline: positive control,activity,25.7%
